{"data": "Measured values collected from several papers", "note": "Every numbered part comes from another study and shows a few of its results, in no order. Substitutions count along the parent as printed."}
{"data": "Block 1", "target": "ABI1, truncated, D143A, DHFR fusion (Arabidopsis thaliana)", "method": "DHFR PCA, deep sequencing", "matrix": "yeast", "notes": "methotrexate growth selection, single substitutions", "added": "(+)-ABA 200 µM", "baseline": "wild-type fitted maximum", "direction": "higher = stronger binding", "parent": "PYL1, truncated, DHFR fusion (Arabidopsis thaliana); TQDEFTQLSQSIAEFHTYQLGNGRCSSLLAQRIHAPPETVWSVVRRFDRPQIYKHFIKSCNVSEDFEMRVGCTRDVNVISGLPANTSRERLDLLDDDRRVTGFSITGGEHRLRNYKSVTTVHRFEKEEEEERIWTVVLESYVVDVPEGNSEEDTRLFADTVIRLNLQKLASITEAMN"}
{"Variant": "I57V", "relative binding score [%]": 101}
{"Variant": "C25V", "relative binding score [%]": 102}
{"Variant": "V121D", "relative binding score [%]": -9.99}
{"Variant": "G148N", "relative binding score [%]": 87.9}
{"Variant": "F47D", "relative binding score [%]": -1.12}
{"Variant": "T1Y", "relative binding score [%]": 98.4}
{"Variant": "S42I", "relative binding score [%]": 68.4}
{"Variant": "L82M", "relative binding score [%]": 99.9}
{"Variant": "R49H", "relative binding score [%]": 97.4}
{"Variant": "Q167D", "relative binding score [%]": 84.5}
{"Variant": "T17A", "relative binding score [%]": 88.6}
{"Variant": "L166T", "relative binding score [%]": -1.06}
{"Variant": "L29T", "relative binding score [%]": 81.3}
{"Variant": "E89T", "relative binding score [%]": -3.84}
{"Variant": "S26F", "relative binding score [%]": 92.3}
{"data": "Block 2", "target": "CCNA2, cyclin fold, Cln2 fusion (human)", "method": "yeast growth competition, sequencing", "matrix": "yeast", "notes": "weak parent motif", "baseline": "not given", "direction": "higher = stronger binding", "parent": "SLBP docking peptide (human); ARYKRKLLINDFG"}
{"Variant": "Y3W", "normalised enrichment score": 1.83}
{"Variant": "I9D", "normalised enrichment score": 0.346}
{"Variant": "R5G", "normalised enrichment score": 0.73}
{"Variant": "F12T", "normalised enrichment score": 0.377}
{"Variant": "A1P", "normalised enrichment score": 1.23}
{"Variant": "G13Q", "normalised enrichment score": 0.481}
{"Variant": "R2L", "normalised enrichment score": 1.3}
{"Variant": "R5F", "normalised enrichment score": 1.53}
{"Variant": "D11R", "normalised enrichment score": 1.88}
{"Variant": "L7S", "normalised enrichment score": 0.19}
{"Variant": "R2H", "normalised enrichment score": 1.34}
{"Variant": "K6V", "normalised enrichment score": 1.82}
{"Variant": "D11T", "normalised enrichment score": 2.08}
{"Variant": "N10C", "normalised enrichment score": 0.577}
{"Variant": "L8F", "normalised enrichment score": 1.8}
{"Variant": "I9H", "normalised enrichment score": 1.69}
{"Variant": "R2V", "normalised enrichment score": 0.953}
{"data": "Block 3", "target": "RNA binding protein fox-1 homolog 2, RRM domain, GST-SBP tag (RBFOX2, Homo sapiens, UniProt O43251-10, residues 100-194)", "method": "RNA Bind-n-Seq", "molecule type": "RNA", "matrix": "in vitro", "tested at": "365 nM", "notes": "natural RNA segment, single round, ends assumed", "baseline": "no-protein control", "direction": "higher = stronger binding", "all sequences stand within": "GGGAGUUCUACAGUCCGACGAUC … UGGAAUUCUCGGGUGCCAA", "Construct (chain)": "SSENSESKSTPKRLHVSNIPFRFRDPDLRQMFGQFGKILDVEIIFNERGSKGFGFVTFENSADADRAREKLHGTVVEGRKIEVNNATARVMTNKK"}
{"Sequence": "AUAGCUGAACUGUGUUUACUGGAAAAAUUCAGAGGCCUAAAGUUUAAAAUAAAAUUUACUUCCGACGUUUUAAUUACAAAUGUUUGCCACAUUAACUUCUCUGAUGCCUU", "RBNS enrichment (R)": 0.473}
{"Sequence": "CACAGUGCCUGGGGCGGAAGGAGGAGAGGUGUUGCGGUUUGCCCUGCUGCCUCCCCAGCAGGAACAAUAGUCAUAAAUGCACUUUUCACACUAAAGGUUUCUUUAUUAGU", "RBNS enrichment (R)": 0.785}
{"Sequence": "AGCGGUUUUUGAGCUUUCAAUAAGCUAUAGCUUUGUUUAUUUCACCUGUUCACUUACUGUAUAAUUUAAAAUCAUUUAUGUAGCUGAGACACUUUGAUACUUCAAUUAUA", "RBNS enrichment (R)": 0.725}
{"Sequence": "UUGUUUUUACAACUGUUCCUUUCACAAGCAAGCCUUAAAAAAAAAAAAGACAACUUCCUUUUUCUUCAGCUCCCACACCCCAUUUUUCUUAGCAGACUGCAGUCAAUCCA", "RBNS enrichment (R)": 0.601}
{"Sequence": "UGUAGUAUUUCUGUACAUACCUGUUUCCAGCAACUUCAGUGUCAAUGUUUUUGAUUUAUUUGUGUCUUAUAGCUCUAGCUGCUAAUAAAGAUCCCAUGUCCUGCUUUCUC", "RBNS enrichment (R)": 0.241}
{"Sequence": "UUGUAGGUCCCGCAUACAUGUCCACCAGGACAUUAGACAGUCGUAAAGAUGCAGAACGAACAGUUUGUGUGUGGGACUGACCCACCCACACACAGCAGGGCACUUGUUCU", "RBNS enrichment (R)": 1}
{"Sequence": "ACCCCACCUCACCCAGAGCAAACCGUAGGACUGCUCCUAGAAGCAGCUCUGUUGACUUCUCUUGGAACACACCUGAACGCUUUCCUCAUUUCUAACCUGUGCCACCUCUU", "RBNS enrichment (R)": 0.581}
{"Sequence": "AUUCAAUAUAGACUUGCCCAAUUAGCCCAUCGAGCCUCCCUAGGCUUCCCGAUUCUCAGGUCUUCUCGGAGGCAGAUCCCUUCCUGAGCUCCAGGCUCUGACUUCACCGU", "RBNS enrichment (R)": 0.236}
{"data": "Block 4", "target": "CEP164, C-terminal peptide (human)", "method": "DHFR complementation, deep sequencing", "matrix": "yeast", "notes": "single substitutions, model-inferred values", "baseline": "wild type", "direction": "higher = weaker binding", "parent": "PDZK1, PDZ domain 2 (human); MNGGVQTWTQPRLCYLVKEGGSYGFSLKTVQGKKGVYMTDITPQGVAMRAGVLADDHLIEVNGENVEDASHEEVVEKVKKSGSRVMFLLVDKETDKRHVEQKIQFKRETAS; partner HNRVKVYRF"}
{"Variant": "D56T", "binding free energy change [kcal/mol]": 0.211}
{"Variant": "E72Q", "binding free energy change [kcal/mol]": 0.558}
{"Variant": "E67F", "binding free energy change [kcal/mol]": 0.393}
{"Variant": "S111Y", "binding free energy change [kcal/mol]": -0.0138}
{"Variant": "K102Y", "binding free energy change [kcal/mol]": -0.0613}
{"Variant": "L27P", "binding free energy change [kcal/mol]": 1.44}
{"Variant": "E108F", "binding free energy change [kcal/mol]": -0.277}
{"Variant": "D95V", "binding free energy change [kcal/mol]": -0.106}
{"Variant": "K77V", "binding free energy change [kcal/mol]": 0.246}
{"Variant": "E76F", "binding free energy change [kcal/mol]": 0.234}
{"Variant": "K18A", "binding free energy change [kcal/mol]": 0.244}
{"Variant": "E73V", "binding free energy change [kcal/mol]": 0.068}
{"data": "Block 5", "target": "Transcriptional repressor CTCF (CTCF, Homo sapiens, UniProt P49711, residues 1-727, full length assumed)", "method": "protein-binding microarray", "molecule type": "double-stranded DNA, one strand shown", "matrix": "in vitro", "tested at": "not given", "notes": "k-mer, scored over probes, only values ≥0.25", "direction": "higher = stronger binding", "sequence of UniProt P49711 (whole entry, looked up)": "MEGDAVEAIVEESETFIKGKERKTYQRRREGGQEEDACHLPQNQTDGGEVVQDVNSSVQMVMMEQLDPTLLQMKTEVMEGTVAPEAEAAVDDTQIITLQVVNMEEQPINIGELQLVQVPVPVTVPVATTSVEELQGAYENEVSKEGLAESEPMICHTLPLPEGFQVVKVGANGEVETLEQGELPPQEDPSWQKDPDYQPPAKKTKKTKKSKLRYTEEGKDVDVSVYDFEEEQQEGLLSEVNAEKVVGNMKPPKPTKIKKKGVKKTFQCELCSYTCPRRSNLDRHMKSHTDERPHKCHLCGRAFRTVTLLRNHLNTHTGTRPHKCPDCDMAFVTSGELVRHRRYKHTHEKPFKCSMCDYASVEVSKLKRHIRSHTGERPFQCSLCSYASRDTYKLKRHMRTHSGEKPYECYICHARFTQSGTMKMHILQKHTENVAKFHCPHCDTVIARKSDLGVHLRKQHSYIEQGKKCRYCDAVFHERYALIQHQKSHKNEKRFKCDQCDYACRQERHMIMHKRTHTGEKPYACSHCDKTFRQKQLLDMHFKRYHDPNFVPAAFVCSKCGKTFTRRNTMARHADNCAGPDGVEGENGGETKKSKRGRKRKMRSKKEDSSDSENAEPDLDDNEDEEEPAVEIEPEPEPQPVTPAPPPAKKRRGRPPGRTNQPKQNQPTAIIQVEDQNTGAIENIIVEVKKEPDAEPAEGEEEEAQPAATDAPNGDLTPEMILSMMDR"}
{"Sequence": "CGCGCCGC", "E-score": 0.372}
{"Sequence": "CGCGCTAA", "E-score": 0.361}
{"Sequence": "GCGCGATA", "E-score": 0.344}
{"Sequence": "GATGCGCC", "E-score": 0.269}
{"Sequence": "CGAATATA", "E-score": 0.275}
{"Sequence": "CGCAATTA", "E-score": 0.308}
{"Sequence": "ATGGCGCA", "E-score": 0.428}
{"Sequence": "GTTATATA", "E-score": 0.37}
{"Sequence": "CGTAAATA", "E-score": 0.291}
{"Sequence": "ATAATGGA", "E-score": 0.3}
{"Sequence": "AAAAATTT", "E-score": 0.317}
{"data": "Block 6", "target": "Histone acetyltransferase KAT6A, winged helix 1, GST fusion (KAT6A, Homo sapiens, UniProt Q92794, residues 1-85)", "method": "protein binding microarray", "molecule type": "double-stranded DNA, one strand shown", "matrix": "in vitro", "tested at": "not given", "notes": "8-mer, flanks averaged, mean of 2 arrays, mostly near background", "baseline": "not given", "direction": "higher = stronger binding", "Residues (chain)": "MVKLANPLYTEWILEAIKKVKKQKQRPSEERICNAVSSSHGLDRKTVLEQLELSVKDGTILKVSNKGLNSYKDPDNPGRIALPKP"}
{"Sequence": "CAGCATTC", "E-score": -0.15}
{"Sequence": "ATCGCGGG", "E-score": 0.325}
{"Sequence": "GCTGAATA", "E-score": -0.106}
{"Sequence": "AGCGGATG", "E-score": 0.213}
{"Sequence": "GCCACTCA", "E-score": -0.0519}
{"Sequence": "ACTGGGTG", "E-score": -0.219}
{"Sequence": "ATTAGAAG", "E-score": -0.0924}
{"Sequence": "CGTTAGGC", "E-score": 0.217}
{"Sequence": "CCTGCGAC", "E-score": -0.0213}
{"Sequence": "CCGATGCC", "E-score": 0.186}
{"Sequence": "AGACTTAC", "E-score": -0.0225}
{"Sequence": "ATACGAAT", "E-score": -0.221}
{"Sequence": "CAGGATCC", "E-score": -0.0411}
{"Sequence": "ACAACATC", "E-score": 0.0397}
{"Sequence": "AAATTTTA", "E-score": -0.217}
{"Sequence": "CGACGGCC", "E-score": 0.435}
{"Sequence": "AACAAACG", "E-score": 0.0512}
{"data": "Single results of other studies"}
{"Substance": "PhoQ, residues 284 288 289 292 302 303 SMMNNA", "target": "PhoP, residues 12 14 15 18 19 NFCKL (Escherichia coli, UniProt P23836)", "test": "Sort-seq, refers to: YFP reporter", "test system": "E. coli", "conditions": "PhoQ-PhoP variant library, added: 10 µM Mg2+", "scale": "baseline: high Mg2+ state, higher = stronger signaling", "measurement": "fold induction", "result": 3.22}
{"note": "Repeated from above (block 5):"}
{"Sequence": "CGCGCCGC", "E-score": 0.372}
{"Sequence": "CGCGCTAA", "E-score": 0.361}
{"Sequence": "GCGCGATA", "E-score": 0.344}
{"Sequence": "GATGCGCC", "E-score": 0.269}
{"Sequence": "CGAATATA", "E-score": 0.275}
{"Sequence": "CGCAATTA", "E-score": 0.308}
{"Sequence": "ATGGCGCA", "E-score": 0.428}
{"Sequence": "GTTATATA", "E-score": 0.37}
{"Sequence": "CGTAAATA", "E-score": 0.291}
{"Sequence": "ATAATGGA", "E-score": 0.3}
{"Sequence": "AAAAATTT", "E-score": 0.317}
